Results from different studies.
“And” joins repeats or separate records; there may be more than shown.
Target: Serine/threonine-protein kinase Chk1 (CHEK1, Homo sapiens, UniProt O14757)

assay = enzyme activity; setting = 100 nM, human enzyme, added: 10 µM ATP; scale = relative to: untreated; quantity = remaining activity; result = 97%; Structure (SMILES) = O=C=[N][Ru-4]123([n]4c5ccc(O)cc5c5c6c(c7cc(F)c[n+]1c7c54)C(=O)NC6=O)[S+]1CC[S+]2CC[S+]3CC1 (centres unmarked)
assay = cell-free assay, competition with immobilised ligand; setting = 10 µM; quantity = remaining binding; result = 100%; Structure (SMILES) = C=C1CCCCCCCCCC(CO)C1=O (centres unmarked)
assay = binding, competition with immobilised ligand; setting = 1 µM; quantity = remaining binding; result = 100%; Structure (SMILES) = Nc1ncc2c(n1)-c1c([nH]c3ccc(C4=CCOCC4)cc13)CCC2
assay = enzyme activity, Dundee kinase panel; setting = 10 µM; quantity = remaining activity; result = 77%; Structure (SMILES) = Cc1ccc(C)c(-c2ccc3nc(NC(=O)C4CCCCC4)nn3c2)c1
assay = enzyme activity, inhibitor; setting = 10 µM; quantity = activity vs control; result = 148%; Structure (SMILES) = O=C(Cc1ccc(OCc2ccccc2)cc1)NC1(C(=O)O)CCN(C(=O)c2ccc(-c3cccc(Cl)c3)cc2)CC1
assay = kinase activity, kinome panel screening; setting = 10 µM; quantity = inhibition; result = -9%; Structure (SMILES) = Cc1cccc(O[C@H]2CCC[C@@H](C(C)CNCc3ccncc3)C2)c1 (relative stereo)
assay = enzyme activity, inhibitor; setting = 1 µM; quantity = activity vs control; result = 112%; Structure (SMILES) = CNC(=O)C[C@H](Cc1ccc(C#N)cc1)NC(=O)c1cc(-c2ccc(CN[C@H](C)c3ccc(C)cc3)o2)ccc1Cl
assay = enzyme activity, inhibitor; setting = 10 µM; quantity = inhibition; result = 4%; Structure (SMILES) = NC(=O)C[C@H]1CCc2sc3ncnc(O[C@H]4CC[C@H](N5CCOCC5)CC4)c3c21
assay = kinase activity, KinaseProfiler; setting = 0.03 µM, species human; scale = relative to: control; quantity = remaining activity; result = 86%; Structure (SMILES) = COc1ccc(NC(=O)Nc2ccc3c(c2)C(=O)N(C(C)CO)CC(C)C(CN(C)Cc2ccc4c(c2)OCO4)O3)cc1 (centres unmarked)
assay = cell-free assay, competition with immobilised ligand; setting = 50 nM; quantity = remaining binding; result = 98%; Structure (SMILES) = CN1CCN(Cc2ccc(NC(=O)c3cccc(C#Cc4cnc(N)c5ncccc45)c3)cc2C(F)(F)F)CC1
assay = enzyme activity, inhibitor; setting = 1 µM; quantity = inhibition; result = 10%; Structure (SMILES) = CN1CC[C@@H](COc2cnc(C#N)cc2-c2ccn3nc(NC(=O)C4CC4)cc3c2)C1
assay = enzyme activity, inhibitor; setting = 1 µM; quantity = remaining activity; result = 95%; Structure (SMILES) = O=c1c(-c2ccc(Cl)c(CN3CCOCC3)c2)coc2cc(O)ccc12
assay = kinase activity, radiometric; setting = 10 µM; quantity = remaining activity; result = 108%; Structure (SMILES) = O=C(O)CCC(=O)c1cccc(NS(=O)(=O)c2c[nH]c3ncccc23)c1
assay = enzyme activity, Dundee kinase panel; setting = 10 µM; quantity = remaining activity; result = 79%; Structure (SMILES) = Cc1cccc(-c2ccc3nc(NC(=O)C4CCCCC4)nn3c2)c1
assay = enzyme activity, inhibitor; setting = 1 µM; quantity = inhibition; result = 76%; Structure (SMILES) = Cc1nc2c(F)cc(-c3nc(Nc4ccc(CNC(=O)CCCCCCC(=O)NO)cc4)ncc3F)cc2n1C(C)C
assay = kinase activity, inhibitor, ProQinase kinase profiling; setting = 25 µM; scale = relative to: control; quantity = remaining activity; result = 102% and 115%; Structure (SMILES) = COCC12C(=O)NC3C4(C(OC)CC1O)C1CC5(O)C(OC)C(O)C(OC(C)=O)(C1C5OC(=O)c1ccccc1)C3(O)C(OC)C24 (centres unmarked)
assay = binding, competition with immobilised ligand; setting = 0.2 µM; quantity = inhibition; result = 10.4%; Structure (SMILES) = COc1ccc(O)cc1-c1c[nH]c2ncc(-c3cncc(C(=O)N(C)C)c3)cc12
assay = enzyme activity, inhibitor; setting = 0.1 µM; quantity = inhibition; result = 17%; Structure (SMILES) = C=CC(=O)Nc1cccc(-c2cnc3[nH]cc(C(=O)NC(C)(C)C)c3n2)c1
assay = cell-free assay, inhibitor; setting = 1 µM; quantity = inhibition; result = 5.3%; Structure (SMILES) = C=CC(=O)N1Cc2nc(-c3cc(-c4cc(Cl)cnc4Cl)c(F)cc3F)n(-c3ccncn3)c2C1
assay = enzyme activity, inhibitor, FRET; setting = 1 µM; quantity = inhibition; result = -2%; Structure (SMILES) = C[C@H]1CN(C(=O)c2cn(-c3ccnc(N)n3)c3cc(C#CC4(O)CCCCC4)ccc23)CCN1
assay = cell-free assay, competition with immobilised ligand; setting = 1 µM; quantity = remaining binding; result = 100%; Structure (SMILES) = Cc1ccc(-c2c(/C=C(\C#N)C(=O)NC(C)C)n(CCCO)c3ncnc(N)c23)cc1
assay = inhibitor; setting = 1 µM; scale = relative to: control; quantity = remaining activity; result = 97%; Structure (SMILES) = COc1cc(Nc2nc(C)cc(-c3cnn4nc(OC)ccc34)n2)cc(C(F)(F)F)c1
assay = cell-free assay; setting = 0.1 µM; quantity = remaining signal; result = 96%; Structure (SMILES) = Cc1cnc2nc1Nc1cccc(c1)COC/C=C/COCc1cc(ccc1OCCN1CCOCC1)N2
